Published values from different studies.
Compare with care: the assays were run in different laboratories. Several values in a cell are separate wells, animals, samples, runs or records. ± gives the spread as reported.
UniProt Q9UL54, sequence (whole entry, looked up): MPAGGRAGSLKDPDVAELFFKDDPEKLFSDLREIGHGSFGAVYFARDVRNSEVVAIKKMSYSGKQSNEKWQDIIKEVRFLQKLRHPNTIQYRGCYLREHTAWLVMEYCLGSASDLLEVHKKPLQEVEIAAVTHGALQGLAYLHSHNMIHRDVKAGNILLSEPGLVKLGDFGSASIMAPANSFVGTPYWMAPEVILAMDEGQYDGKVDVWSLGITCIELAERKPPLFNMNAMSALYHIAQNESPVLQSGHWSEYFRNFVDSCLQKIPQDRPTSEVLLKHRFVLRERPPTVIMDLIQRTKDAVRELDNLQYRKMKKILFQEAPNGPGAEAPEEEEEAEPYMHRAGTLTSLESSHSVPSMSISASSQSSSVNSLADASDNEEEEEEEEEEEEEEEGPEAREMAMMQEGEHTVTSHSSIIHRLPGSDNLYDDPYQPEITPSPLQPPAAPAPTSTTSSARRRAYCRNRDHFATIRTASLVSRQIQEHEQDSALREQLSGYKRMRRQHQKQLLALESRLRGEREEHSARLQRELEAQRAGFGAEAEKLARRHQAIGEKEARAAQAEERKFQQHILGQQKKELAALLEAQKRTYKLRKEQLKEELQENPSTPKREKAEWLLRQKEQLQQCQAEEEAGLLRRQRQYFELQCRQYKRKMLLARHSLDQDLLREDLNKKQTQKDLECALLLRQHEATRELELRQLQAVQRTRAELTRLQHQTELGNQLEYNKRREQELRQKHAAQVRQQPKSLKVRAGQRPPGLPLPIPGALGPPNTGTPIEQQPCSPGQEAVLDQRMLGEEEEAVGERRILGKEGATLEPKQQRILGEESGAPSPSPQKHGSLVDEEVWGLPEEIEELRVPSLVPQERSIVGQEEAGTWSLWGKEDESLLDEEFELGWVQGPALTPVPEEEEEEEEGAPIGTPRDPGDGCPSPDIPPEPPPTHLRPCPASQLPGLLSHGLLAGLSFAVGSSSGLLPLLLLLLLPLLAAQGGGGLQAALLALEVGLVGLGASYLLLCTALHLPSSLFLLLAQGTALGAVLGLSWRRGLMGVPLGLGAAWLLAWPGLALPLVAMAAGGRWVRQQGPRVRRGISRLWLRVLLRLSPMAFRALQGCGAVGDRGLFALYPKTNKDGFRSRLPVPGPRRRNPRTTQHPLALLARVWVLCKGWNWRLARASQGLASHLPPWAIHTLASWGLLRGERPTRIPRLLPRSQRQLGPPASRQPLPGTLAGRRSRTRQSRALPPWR

For Cc1ncsc1-c1ccc(C(C)NC(=O)C2CC(O)CN2C(=O)C(NC(=O)CCCCCCCCCCN2CCCC(Nc3ncc(Cl)c(Nc4ccccc4S(=O)(=O)C(C)C)n3)C2)C(C)(C)C)cc1 (stereo not drawn), “log2 fold change” read -1.59 (22Rv1; RNA-seq, refers to: NSD1 mRNA; concentration not given; baseline: DMSO).
For COC1CN([C@H]2CC[C@H]([C@@]3(C)Oc4c(Cl)cc(C(=O)NCc5c(SC)cc(C)[nH]c5=O)c(C)c4O3)CC2)C1, “log2 fold change” read 0.258 (RNA-seq, refers to: SEPTIN10 mouse homolog; mouse, HT-1376 xenograft, whole blood; dose not given; baseline: vehicle).
For CC(C)c1ccc(N(C)c2ccc3c(c2)OCC[C@H]3CNc2cnccc2C(=O)O)cc1, the IC50 was 0.00356 µM (NCI-H2087; cell growth or viability, ATP luminescence; 7 days).
CCCC[C@H](NC(=O)COCCOCCNC(=O)CN1CCN(CC(=O)O)CCN(CC(=O)O)CC1)C(=O)N[C@H]1CC(=O)NCCCC[C@@H](C(N)=O)NC(=O)[C@H](Cc2c[nH]c3ccccc23)NC(=O)[C@H](CCCNC(=N)N)NC(=O)[C@@H](Cc2ccccc2)NC(=O)[C@H](Cc2c[nH]cn2)NC1=O [technetium-99m labelled] gave a tissue uptake of 0.13 ± 0.04 %ID/g (C57 mouse, heart; intravenous, 0.037 MBq, 2 h).
Under “log2 fold change”, CN1CCCNC(=O)c2cccc(c2)C(=O)NCCCN(C)CCCNc2cccc3c2C(=O)c2cccc(c2C3=O)NCCC1 is recorded as -0.759 (SAS; RNA-Seq, refers to: EHMT2 mRNA; 1 µM, 6 h; baseline: untreated cells).
The larval motion of COc1ccc(N2CCN(CC(O)COc3ccc4ccccc4c3)CC2)cc1 (stereo not drawn) is reported as 12.7 ± 1.9 pixels/frame (zebrafish larvae, 7 dpf; 10 µM, minute 6).
For C=CC(=O)Nc1cccc(Cn2ncc3cnc(Nc4cnn(CCOC)c4)nc32)c1, “percent of control” read 100% (DAPK3 human; binding, KINOMEscan; 100 nM; lower = stronger binding).
With CC(C)C[C@H](NC(=O)[C@@H](CCCCNC(=O)[C@@H](Cc1ccccc1)NC(=O)CCCCCNC(=O)CN1CCN(CC(=O)O)CCN(CC(=O)O)CCN(CC(=O)O)CC1)NC(=O)[C@H](Cc1ccc(O)cc1)NC(=O)[C@H](CO)NC(=O)[C@H](Cc1c[nH]c2ccccc12)NC(=O)[C@H](Cc1c[nH]cn1)NC(=O)[C@@H]1CCC(=O)N1)C(=O)N[C@@H](CCCNC(=N)N)C(=O)N1CCC[C@H]1C(=O)NCC(N)=O [indium-111 labelled] the tissue uptake was 0.06 ± 0.02 %ID/g (female athymic nude mice, blood; intravenous, 0.037 MBq, 2 h).
For CN(C)C(=O)c1ccnc(N2Cc3cn(Cc4ccc(F)cc4F)nc3C2)n1, “rotarod speed at fall” read 23 RPM and 13 RPM and 16 RPM and 11 RPM (cuprizone-diet mice, rotarod test; oral, 5 mg/kg).
The revertant colonies of O=C1NC2(CC2)COc2ncc(F)cc2[C@H]2COCCN2c2ccn3ncc1c3n2 is reported as 24 ± 3 revertants/plate (Salmonella typhimurium; Ames test; TA98; 1500 µg/plate, 48 h, with: rat liver S9).
With CCN(C(=O)c1cc(F)ccc1Oc1nncnc1N1CCC2(C1)CN([C@H](CCCN(C)CCOC)C(C)C)C2)C(C)C the GI50 was > 10 µM (TE-671; muscle; 168 h).
C=C1CC[C@H](OCCCNC(=O)CCOCCOCCOCCOCCOCCOCCOCCOCCOCCOCCOCCOCCOCCOCCOCCOCCOCCOCCOCCOCCOCCOCCOCCOCCOCCOCCOCCOCCOCCOCCOCCOCCOCCOCCOCCOCCNC(=O)CCN2C(=O)CC(SC[C@H](NC(=O)[C@H](Cc3ccccc3)NC(=O)[C@H](CC(N)=O)NC(=O)[C@H](Cc3c[nH]cn3)NC(=O)[C@@H](NC(=O)[C@H](CC(=O)O)NC(=O)[C@H](CCC(N)=O)NC(=O)[C@H](CC(C)C)NC(=O)[C@H](CCCCN)NC(=O)[C@H](CCCCN)NC(=O)[C@H](CCCNC(=N)N)NC(=O)[C@H](CC(C)C)NC(=O)[C@H](Cc3c[nH]c4ccccc34)NC(=O)[C@H](CCC(=O)O)NC(=O)[C@@H](NC(=O)[C@H](CCCNC(=N)N)NC(=O)[C@H](CCC(=O)O)NC(=O)[C@H](CCSC)NC(=O)[C@H](CO)NC(=O)[C@H](CC(N)=O)NC(=O)[C@H](CC(C)C)NC(=O)[C@H](Cc3c[nH]cn3)NC(=O)[C@H](CCCCN)NC(=O)CNC(=O)[C@H](CC(C)C)NC(=O)[C@H](CC(N)=O)NC(=O)[C@H](Cc3c[nH]cn3)NC(=O)[C@H](CCSC)NC(=O)[C@H](CC(C)C)NC(=O)[C@H](CCC(N)=O)NC(=O)[C@@H](NC(=O)[C@H](CCC(=O)O)NC(=O)[C@H](CO)NC(=O)[C@@H](NC(=O)[C@@H](N)CO)C(C)C)[C@@H](C)CC)C(C)C)C(C)C)C(=O)O)C2=O)C/C1=C/C=C1\CCC[C@]2(C)[C@@H]([C@H](C)CCCC(C)(C)O)CC[C@@H]12 (stereo partly drawn) has a clearance of 0.111 mL/min/kg (male cynomolgus monkey, plasma; subcutaneous, 0.007 mg/kg, single dose).
Cc1cc(NC(=O)CCN2CCCCC2)ccc1Br gave a larval motion of 16.5 ± 1.6 pixels/frame (zebrafish larvae, 7 dpf; 10 µM, minute 6).
CCCC[C@H](NC(=O)CCCCCCCNC(=O)CN1CCN(CC(=O)O)CCN(CC(=O)O)CC1)C(=O)N[C@H]1CC(=O)NCCCC[C@@H](C(N)=O)NC(=O)[C@H](Cc2c[nH]c3ccccc23)NC(=O)[C@H](CCCNC(=N)N)NC(=O)[C@@H](Cc2ccccc2)NC(=O)[C@H](Cc2c[nH]cn2)NC1=O [technetium-99m labelled] has a tissue uptake of 0.5 ± 0.11 %ID/g (C57 mouse, liver; intravenous, 0.037 MBq, 2 h).
With CCN(CC)CC(=O)Nc1cccc(-n2cc(-c3ccc4ccc(-c5cn(-c6cccc(NC(=O)CN(CC)CC)c6)nn5)cc4c3)nn2)c1 the fold regulation was 1.3 (RCC4; PCR angiogenesis array, refers to: CXCL9; 5 x IC50, 4 h, normoxia; baseline: untreated).
CC(C)C[C@@H](NC(=O)[C@@H](CC(C)C)NC(=O)[C@@H](CC(=O)O)NC(=O)[C@@H](CC(C)C)NC(=O)[C@@H](CC(C)C)NC(=O)[C@@H](CC(C)C)NC(=O)[C@H](NC(=O)[C@@H](CC(=O)O)NC(=O)[C@H](NC(=O)[C@H]1CCCN1C(=O)[C@@H](Cc1ccccc1)NC(=O)[C@@H](CC(C)C)NC(=O)[C@@H](CC(C)C)NC(=O)[C@@H](CC(=O)O)NC(=O)[C@@H](CC(C)C)NC(=O)[C@@H](Cc1ccc(O)cc1)NC(=O)[C@@H](C)NC(=O)[C@@H](CCCNC(=N)N)NC(=O)[C@@H](Cc1c[nH]c2ccccc12)NC(=O)[C@H]1CCCN1C(=O)[C@@H](CC(N)=O)NC(=O)[C@@H](CCC(N)=O)NC(=O)[C@@H](CC(=O)O)NC(=O)[C@@H](CC(=O)O)NC(=O)[C@@H](CSC1CC(=O)N(CCNC(=O)CN2CCN(CC(=O)O)CCN(CC(=O)O)CC2)C1=O)NC(=O)[C@@H](C)N)[C@H](C)O)[C@H](C)O)C(=O)N[C@H](Cc1c[nH]c2ccccc12)C(=O)O (stereo partly drawn) [fluorine-18 labelled] has a tissue uptake of 10.5 %ID/g (female C57BL/6 mice, B16-F10 melanoma, tumor; intravenous, 8 h).
c1ccc(-c2n[nH]cc2-c2ccnc3ccccc23)nc1 — result for “log2 fold change”: -0.21 (TPK2 (Candida albicans); kinase binding, MIB/MS competition; Candida albicans lysate; 10 µM; baseline: DMSO).
With Cc1cc(OCCOCCN(C)C)cc(C(C)C)c1 the larval motion was 0.8 ± 0.3 pixels/frame (locomotor activity in dark; zebrafish larvae, 7 dpf; 10 µM, minute 7, dark phase).
Cn1ncc2cc(-c3cncc(Cl)c3N3CCC4(CCNC4=O)CC3)ccc21: “log2 fold change” 1.61 (LS174T; gene expression, microarray, refers to: CBWD1 mRNA; concentration not given, 4 h; baseline: untreated cells).
Cc1nn(-c2cccc(N)c2)c(=O)c2cnc(Nc3ccc(N4CCNCC4)cc3)nc12 has an IC50 of > 10 µM (TAOK2 (Homo sapiens, UniProt Q9UL54); inhibitor).
C=C(NC(=O)c1csc(-c2nc3c(cc2O)-c2nc(cs2)C(=O)NC(C(C)O)C(=O)NC(=C(C)OC)c2nc(cs2)C(=O)NC2c4nc(cs4)C(=O)NC(COC(=O)c4c5c6c(cccc6n4O)COC(=O)C(OC4CC(C)(O)C(N(C)C)C(C)O4)C2OC5)c2nc-3cs2)n1)C(N)=O (stereo not drawn) gave a half-life of 5.98 h (cynomolgus monkey, both sexes, plasma; intravenous infusion, 3 mg/kg multiple doses, day 7).
C=CC(=O)N1[C@@H](c2ccc3c(c2)OCO3)c2[nH]c3ccccc3c2C[C@H]1C(=O)N1CCN(C)CC1 gave a relative co-enrichment of 78% (human cyclin E1 wild type-3xFLAG:CDK2; co-IP with TMT proteomics, refers to: PRPF8; concentration not given, Q6P2Q9; baseline: wild type DMSO).
Nc1ncc(-c2cc(-c3cnn(CC(F)(F)F)c3)ncc2F)nc1C(=O)NC1CNCC(F)C1 (stereo not drawn) gave a remaining binding of 81% (CAMK1; KINOMEscan; 1 µM; baseline: DMSO control).
With CNS(=O)(=O)Nc1nccc(Cc2c(C)c3ccc(Oc4ncccc4F)cc3oc2=O)c1F the IC50 was > 1 µM (Daudi; cell viability; 7 days).

Some of these lines once more:
Cc1nn(-c2cccc(N)c2)c(=O)c2cnc(Nc3ccc(N4CCNCC4)cc3)nc12 has an IC50 of > 10 µM (TAOK2 (Homo sapiens, UniProt Q9UL54); inhibitor).
The larval motion of COc1ccc(N2CCN(CC(O)COc3ccc4ccccc4c3)CC2)cc1 (stereo not drawn) is reported as 12.7 ± 1.9 pixels/frame (zebrafish larvae, 7 dpf; 10 µM, minute 6).
C=C(NC(=O)c1csc(-c2nc3c(cc2O)-c2nc(cs2)C(=O)NC(C(C)O)C(=O)NC(=C(C)OC)c2nc(cs2)C(=O)NC2c4nc(cs4)C(=O)NC(COC(=O)c4c5c6c(cccc6n4O)COC(=O)C(OC4CC(C)(O)C(N(C)C)C(C)O4)C2OC5)c2nc-3cs2)n1)C(N)=O (stereo not drawn) gave a half-life of 5.98 h (cynomolgus monkey, both sexes, plasma; intravenous infusion, 3 mg/kg multiple doses, day 7).
